# Experimental data pooled from the literature.
# Lines come from different studies, so protocols differ. ± gives the spread as reported.
Compound,assay,test system,conditions,logD
CN1C(C(=O)Nc2cccc(F)n2)=C(O)c2ccccc2S1(=O)=O,miniaturised shake-flask,1-octanol/water,,-0.6
COc1cc(OC)c(NC(=O)CSc2nnc(-c3ccccc3)n2C)cc1Cl,,octanol/buffer,pH 7.4,2.95
CCC(CC)[C@@H]1COC[C@]2(CC[C@H](c3ccccc3)CC2)N1,"shake-flask, 1-octanol/buffer",,pH 7.4,> 4.7
CC(C(=O)O)n1nc(Cn2cc3cc(OCCF)c(Cl)cc3n2)c2ccccc2c1=O (racemic),,,"pH 7.4, room temperature",0.11 ± 0.02
COc1cc2[nH]c(C)c(-c3ccc(N4CCN(C)CC4)nc3)c(=O)c2cc1Cl,chromatographic,,pH 7.4,1.9
Cc1nc(C)c(-c2ccnc(Nc3ccc(N(C)C)c([N+](=O)[O-])c3)n2)s1,,octanol/buffer,"67 µM, pH 7.4",4.42
Fc1ccc(N2CCNCC2COc2ccc3ccccc3c2)cc1 (stereo not drawn),experimental partition,,pH 7.4,3.46 ± 0.05
C[C@@H](NC(=O)c1ccccc1CCC(=O)NNC(=O)/C=C/C(=O)OCC1CCCC1)c1cccc2ccccc12,,,,4.7
Clc1ccc(Nc2ncnc3ccc(-c4cccc(N5CCOCC5)c4)cc23)cc1Cl,shake flask,1-octanol/phosphate buffer,pH 7.4,> 4.2
CC(C)(C)c1ccc([C@H]2COC[C@@H](c3ccc(Cl)cc3)N2)cc1,"shake-flask, 1-octanol/buffer",,pH 7.4,> 4.7
COc1cc2[nH]c(C)c(-c3ccc(OCc4ccccc4)cc3)c(=O)c2cc1Cl,chromatographic,,pH 7.4,3.5
CN(c1ccc(F)cc1)c1c(-c2cc(Cl)ccn2)nc2ccccn12,,,pH 7.4,> 4.2
CCOC(=O)N1C[C@@H](c2ccc(C(C)(C)C)cc2)N[C@@H](C(CC)CC)C1,"shake-flask, 1-octanol/buffer",,pH 7.4,> 4.7
COc1ccc(C(=O)N2CCCCC2)cc1,shake-flask,1-octanol/water,,1.89
FC(F)(F)CN1CC(n2cc(Oc3ccn4nc(Cl)cc4n3)cn2)C1,,,pH 7.4,2.46
C[C@@H](NC(=O)c1ccccc1CCC(=O)NNC(=O)/C=C/C(=O)OC1CCC1)c1cccc2ccccc12,,,,3.9
Cc1cc(Nc2ccc(S(F)(F)(F)(F)F)cc2)n2ccnc2n1,,,,3.3
O=C(O)c1cc(-c2ccc(-n3ccnn3)cc2)cc(-n2cc(-c3ccc(C(F)(F)F)cc3)nn2)c1,HPLC retention,,pH 7.4,0.04
CN1C(C(=O)Nc2ccccn2)=C(O)c2ccccc2S1(=O)=O,miniaturised shake-flask,1-octanol/water,,0.5
CCn1c(SCC(=O)Nc2cccc(C(C)=O)c2)nnc1-c1ccncc1,,octanol/buffer,pH 7.4,1.6
COc1cc2[nH]c(C)c(-c3ccc(OC(F)(F)F)cc3)c(=O)c2cc1Cl,chromatographic,,pH 7.4,3.4
COC(=O)c1ccccc1NC(=O)CSc1nnc(-c2ccc(OC)cc2)n1C,,octanol/buffer,pH 7.4,2.75
COc1cc2[nH]c(C)c(-c3cccc4c3oc3ccccc34)c(=O)c2cc1Cl,chromatographic,,pH 7.4,3.5
Clc1ccc([C@@H]2COC[C@H](c3ccc(-c4ccccn4)cc3)N2)cc1,"shake-flask, 1-octanol/buffer",,pH 7.4,> 4.4
C=CC(=O)NC1CCN(c2ncc3ncnc(Nc4ccc(Oc5ccc6c(c5)ncn6C)c(C)c4)c3n2)CC1,,,pH 7.4,4.7
C[C@@H](NC(=O)c1ccccc1CCC(=O)NNC(=O)/C=C/C(=O)OCCC(F)(F)F)c1cccc2ccccc12,,,,3
COc1cc2[nH]c(C)c(-c3cc(C(F)(F)F)cc(C(F)(F)F)c3)c(=O)c2cc1Cl,chromatographic,,pH 7.4,4
Cc1ccc([C@@H]2COC[C@H](c3cc(Cl)cc(Cl)c3)N2)cc1,"shake-flask, 1-octanol/buffer",,pH 7.4,> 4.7
Clc1ccc(Nc2ncnc3ccc(-c4cccc(N5CCOCC5)c4)cc23)cc1,shake flask,1-octanol/phosphate buffer,pH 7.4,> 4.6
CC(C)C[C@@H](NC(=O)[C@H](C)NC(=O)CNC(=O)[C@@H](NC=O)C(C)C)C(=O)N[C@@H](C)C(=O)N[C@@H](C(=O)N[C@H](C(=O)N[C@@H](C(=O)N[C@@H](Cc1c[nH]c2ccccc12)C(=O)N[C@H](CC(C)C)C(=O)N[C@@H](Cc1c[nH]c2ccccc12)C(=O)N[C@H](CC(C)C)C(=O)N[C@@H](Cc1c[nH]c2ccccc12)C(=O)N[C@@H](C(=O)N[C@@H](Cc1c[nH]c2ccccc12)C(=O)NCCO)C(C)C)[C@H](C)O)C(C)C)C(C)C,UHPLC retention on C18,,,4.31
Cc1ccc(Oc2ccc(NC(=O)CNc3ccccc3N3CCCC3=O)cc2)cc1,shake-flask,,,4.3
Clc1cc(Cl)cc([C@@H]2COC[C@]3(CC[C@H](c4ccccc4)CC3)N2)c1,"shake-flask, 1-octanol/buffer",,pH 7.4,> 4.7
COc1cc2[nH]c(C)c(-c3ccc(O)cc3)c(=O)c2cc1Cl,chromatographic,,pH 7.4,1.8
N=C(N)NS(=O)(=O)c1ccc(N/C=C2\C(=O)Nc3ccccc32)cc1,,octanol/buffer,pH 11,1.72
COc1cc2[nH]c(C)c(-c3ccc(CO)cc3)c(=O)c2cc1Cl,chromatographic,,pH 7.4,1.8
CN(CC(=O)Nc1ccc(N(C)c2ccc(Cl)c(F)c2)cc1)c1ccccc1N1CCCC1=O,shake-flask,,,5.7
CN1C(C(=O)Nc2ccccn2)=C(O)c2sc(Cl)cc2S1(=O)=O,miniaturised shake-flask,1-octanol/water,,1.1
O=C(O)c1cc(-c2ccc(-n3ccnn3)cc2)c2ccc(-c3ccc(C(F)(F)F)cc3)cc2c1,HPLC retention,,"pH 7.4, chromatographic logD",0.6
COc1cc2[nH]c(C)c(-c3ccc(OC)c(F)c3F)c(=O)c2cc1Cl,chromatographic,,pH 7.4,2.7
Cc1c([C@@H]2COC[C@H](c3ccc(-c4ccccc4)cc3)N2)cnn1-c1ccccc1,"shake-flask, 1-octanol/buffer",,pH 7.4,> 4.7
C[C@@H](NC(=O)c1ccccc1CCC(=O)NNC(=O)/C=C/C(=O)O)c1cccc2ccccc12,,,,-1.1
COc1ccnc(C(=O)NC2CCCCC2)c1O,miniaturised shake-flask,1-octanol/water,,1.6
COc1ccccc1NC(=O)CSc1nncn1C,,octanol/buffer,pH 7.4,0.65
Cc1ccc([C@H]2N[C@@H](c3ccc(C(C)(C)C)cc3)CO[C@@H]2C)cc1,"shake-flask, 1-octanol/buffer",,pH 7.4,> 4.7
Cc1cccc(NS(=O)(=O)c2cc(C(=O)Nc3ccccc3C(=O)N3CCOCC3)ccc2Cl)c1,,octanol/buffer,pH 7.4,2.92
CN(CCCCCCNC(=O)COc1ccc(C2CCC(=O)NC2=O)cc1)Cc1cn(Cc2ccc(C(=O)NO)cc2)c2ccccc12 (stereo not drawn),HPLC-based method,,pH 7.4,1.2
C[C@@H](NC(=O)c1ccccc1CCC(=O)NNC(=O)/C=C/C(=O)OCc1ccccc1)c1cccc2ccccc12,,,,4.5
O=C(O)c1cccnc1Nc1cccc(C(F)(F)F)c1,miniaturised shake-flask,1-octanol/water,,2.1
NC[C@H](NC(=O)c1ccc(-c2ccc(Br)cc2)cc1)C(=O)NO,,octanol/buffer,pH 7.4,3.8
O=C(O)c1c(O)c(-c2ccccc2)nc2ccccc12,miniaturised shake-flask,1-octanol/water,,0.6
O=C(COc1ccc(C2CCC(=O)NC2=O)cc1)NCCCCCCN1CCc2c(c3ccccc3n2Cc2ccc(C(=O)NO)cc2)C1 (stereo not drawn),HPLC-based method,,pH 7.4,1.6

# Excerpt of the above:
Compound,assay,test system,conditions,logD
C[C@@H](NC(=O)c1ccccc1CCC(=O)NNC(=O)/C=C/C(=O)OCC1CCCC1)c1cccc2ccccc12,,,,4.7
Clc1ccc(Nc2ncnc3ccc(-c4cccc(N5CCOCC5)c4)cc23)cc1Cl,shake flask,1-octanol/phosphate buffer,pH 7.4,> 4.2
CC(C)(C)c1ccc([C@H]2COC[C@@H](c3ccc(Cl)cc3)N2)cc1,"shake-flask, 1-octanol/buffer",,pH 7.4,> 4.7
COc1cc2[nH]c(C)c(-c3ccc(OCc4ccccc4)cc3)c(=O)c2cc1Cl,chromatographic,,pH 7.4,3.5
